Measured values of several laboratories.
Every numbered part comes from another study and shows a few of its results, in no order. Positions count from the first letter of the parent shown.

Series 1
Target: Histone acetyltransferase KAT6A, winged helix 1, GST fusion (KAT6A, Homo sapiens, UniProt Q92794, residues 1-85)
Technique: protein binding microarray
Molecule type: double-stranded DNA, one strand shown
Matrix: in vitro
Tested at: not given
Notes: 8-mer, flanks averaged, mean of 2 arrays, mostly near background
Relative to: not given
Direction: higher = stronger binding
Residues (chain): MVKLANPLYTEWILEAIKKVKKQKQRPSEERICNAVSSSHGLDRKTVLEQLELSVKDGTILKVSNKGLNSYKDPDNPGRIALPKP
Sequence	E-score
AGCACTCA	-0.253
GCCTTGCC	0.00668
AGGAGTAG	-0.148
GTTGACTA	0.000595
ATCGCGTA	0.136
CAATGCCA	-0.184
AAAAAACA	-0.194
CGAAGCCG	0.32
ACAGAGCA	-0.22
CTAGTTCA	-0.169
CATGGGAA	-0.178
AGAGACAA	-0.258
ATCTCACA	-0.0967
AACAAAAT	-0.193
AACGCCGC	0.355
CATGTGAG	-0.248
GCTGCTCC	0.0952
CCAAGGAC	-0.057
CAGAAGTA	-0.141
CGCCAACC	0.226
AAACCTAA	0.111
AACTACAC	-0.115
GGGAATAC	0.063
AAAATTCG	-0.112
CTGATTCA	-0.111

Series 2
Target: RING finger protein unkempt homolog, zinc fingers 1-6, GST-SBP tag (UNK, Homo sapiens, UniProt Q9C0B0, residues 30-357)
Chain of UniProt Q9C0B0 (30-357, looked up): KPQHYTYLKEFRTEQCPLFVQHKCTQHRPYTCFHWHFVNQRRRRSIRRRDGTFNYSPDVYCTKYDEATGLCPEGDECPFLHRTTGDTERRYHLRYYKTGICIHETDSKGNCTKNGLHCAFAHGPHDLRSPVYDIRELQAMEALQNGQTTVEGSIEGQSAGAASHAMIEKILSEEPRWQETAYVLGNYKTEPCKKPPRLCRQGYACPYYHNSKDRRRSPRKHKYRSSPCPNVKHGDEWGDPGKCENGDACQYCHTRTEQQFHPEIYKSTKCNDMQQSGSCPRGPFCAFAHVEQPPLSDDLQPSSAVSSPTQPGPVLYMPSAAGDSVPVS
Technique: RNA Bind-n-Seq
Molecule type: RNA
Matrix: in vitro
Tested at: not given
Notes: RNA with constant flanks, human and mouse sites, ends assumed
Relative to: input RNA pool
Direction: higher = stronger binding
Shared flanks, not repeated: GGGAGUUCUACAGUCCGACGAUC … CAACAGAGGAUUGAGCAUCA
Sequence	bound/input enrichment [ratio]
ACUGAAGAAGAUGAUGAUGGGGAAUUAGCACUGUGGUCCCCUGAAGUCAAGAUUGUUGAACUAGUAAAAGAUUGUAAAGGUUUGGGAUUCAGCAUUUUGGAUUACCAGGACCCUUUAGAU	0.363
CACUGCAUUGCCACUGAGAACAGCUUCAAACAGACCAUAGCCAAGAUCAACUUCAAAGUUUUAGAUUCAGAAAUGGUGGCCGUUGUGACAGACAAGUGGUCCCCGUGGACAUGGGCUGGC	0.246
GUAUGAAUUUAUUUUCCUUUGCUACUCAUUACCUGACCACUUUCACUCCUCUAGAUACCCUUAGGAAUAAACCUGAACUGUUCCAAAUCGAUUCUUCCAAGAGCUUUGGUGUUGGUACCU	2.23
ACAAUUUAUGAGAUUAUUGAUAAUUCUCAAGGAUUCUACGUUUGUCCAGUGGAGCCCCAAAAUAGAAGCAAGAUGAAUAUUCCAUUCCGCAUUGGCAAUGCCAAAGGAGAUGAUGCUUUA	2.86
GAUUUGCCACACAACUUCACAUCUAUAAUUUGUCAACCCAAACUCUUCUAGCCAAUGAUGGAGCAUGUGCGAAUUCACCCGGAAUUAGUGACUGGAUCCAAGGACCAUGAACUGGACCCU	0.492
UGUGUGAUUUGUGACUCCUAUGUGCGUCCCUGCACUCUGGUGCGCAUAUGUGAUGAGUGUAACUAUGGAUCUUACCAGGGGCGCUGUGUGAUCUGUGGAGGACCUGGGGUCUCUGAUGCC	0.327
GCUGGAAACGGGCGGCGGCUCCACUUAGGGAUUCCUGAAGCAGUGUUUGUGGAAGAUGUAGAUUCUUUCAUGAAGCAGCCUGGGAAUGAGACUGCAGAUACAGUGUUAAAGAAGCUGGAU	0.323
UAUAGUCCUGGAUCUUCUGGGGUUCCCUAUGCAAAUGCCAAAGGAAUUGGUUAUCCAGCUGGUUUUCCCAUGGGCUAUGCAGCAGCAGCUCCUGCCUAUUCUCCUAACAUGUAUCCUGGA	0.165

Series 3
Target: CCNB3, cyclin fold, Cln2 fusion (human)
Technique: yeast growth competition, sequencing
Matrix: yeast
Notes: weak parent motif
Relative to: not given
Direction: higher = stronger binding
Parent: WEE1 docking peptide (human); CTLRQKLIFSPCS
Substitution	normalised enrichment score
ATLRQKLIFSPCS [C1A]	0.141
CTLRQKLIASPCS [F9A]	-0.0389
CALRQKLIFSPCS [T2A]	0.263
CTARQKLIFSPCS [L3A]	0.101
CTLRQKLIFAPCS [S10A]	0.107
CTLRAKLIFSPCS [Q5A]	0.68
CTLRQKLIFSPCA [S13A]	0.167

Series 4
Target: UBE2M UBC core domain (UniProt P61081)
Technique: yeast two-hybrid
Matrix: yeast
Notes: mostly zero background
Relative to: not given
Direction: higher = stronger interaction
B1: RNF4 RING domain (UniProt P78317); chain TGLRPSGTVSCPICMDGYSEIVQNGRLIVSTECGHVFCSQCLRDSLKNANTCPTCRKKINHKRYHP
B2: RNF150 RING domain (UniProt Q9ULK6); chain DKETESDFDNCAVCIEGYKPNDVVRILPCRHLFHKSCVDPWLLDHRTCPMCKMNILKALGIP
B3: RNF32 RING domain (UniProt Q9H0A6); chain SLLQGDSVQPCPICKEEFELRPQVLLSCSHVFHKACLQAFEKFTNKKTCPLCRKNQYQTRVIH
B4: RNF175 RING domain (UniProt Q8N4F7); chain LPTRSLSDNICAVCGQKIIVELDEEGLIENTYQLSCNHVFHEFCIRGWCIVGKKQTCPYCKEKVDLKRMIS
B5: TRIM15 RING domain (UniProt Q9C019); chain SLKVVHELPACTLCAGPLEDAVTIPCGHTFCRLCLPALSQMGAQSSGKILLCPLCQEEEQAETPMA
B6: PHF7 RING domain (UniProt Q9BWX1); chain IQHGHVGEESCILCCEDLSQQSVENIQSPCCSQAIYHRKCIQKYAHTSAKHFFKCPQCNNRKEFPQEML
B7: TRIM55 RING domain (UniProt Q9BYV6); chain TMDNLEKQLICPICLEMFTKPVVILPCQHNLCRKCASDIFQASNPYLPTRGGTTMASGGRFRCPSCRHEVVLDRHG
B8: TRIM3 RING domain (UniProt O75382); chain VQPMDKQFLVCSICLDRYQCPKVLPCLHTFCERCLQNYIPAQSLTLSCPVCRQTSILPEQGV
Target sequence (chain): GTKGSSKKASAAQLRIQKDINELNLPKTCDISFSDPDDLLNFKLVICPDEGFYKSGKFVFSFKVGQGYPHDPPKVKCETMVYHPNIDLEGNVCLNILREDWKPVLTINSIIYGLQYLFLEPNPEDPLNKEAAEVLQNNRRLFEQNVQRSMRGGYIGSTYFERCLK
Sequence	lacZ reporter activity
FLKKLEQSFMCVCCQELVYQPVTTECFHNVCKDCLQRSFKAQVFSCPACRHDLGQNYIMI (UHRF2 RING domain (UniProt Q96PU4))	0
B1 (RNF4 RING domain)	0
B2 (RNF150 RING domain)	0
B3 (RNF32 RING domain)	0
B4 (RNF175 RING domain)	0
B5 (TRIM15 RING domain)	0
KRQCSDVDDICSICQAEFQKPILLICQHIFCEECMTLWFNREKTCPLCRTVISDHINKW (RNFT1 RING domain (UniProt Q5M7Z0))	0
B6 (PHF7 RING domain)	0
B7 (TRIM55 RING domain)	0
B8 (TRIM3 RING domain)	0
